Published values of several laboratories.
Lines come from different studies, so protocols differ. “And” joins repeats or separate records; there may be more than shown. ± marks the error that the study gave.
USP13 ZnF-UBD domain: Ubiquitin carboxyl-terminal hydrolase 13, ZnF-UBD domain (USP13, Homo sapiens, UniProt Q92995)
Sequence of UniProt Q92995 (whole entry, looked up): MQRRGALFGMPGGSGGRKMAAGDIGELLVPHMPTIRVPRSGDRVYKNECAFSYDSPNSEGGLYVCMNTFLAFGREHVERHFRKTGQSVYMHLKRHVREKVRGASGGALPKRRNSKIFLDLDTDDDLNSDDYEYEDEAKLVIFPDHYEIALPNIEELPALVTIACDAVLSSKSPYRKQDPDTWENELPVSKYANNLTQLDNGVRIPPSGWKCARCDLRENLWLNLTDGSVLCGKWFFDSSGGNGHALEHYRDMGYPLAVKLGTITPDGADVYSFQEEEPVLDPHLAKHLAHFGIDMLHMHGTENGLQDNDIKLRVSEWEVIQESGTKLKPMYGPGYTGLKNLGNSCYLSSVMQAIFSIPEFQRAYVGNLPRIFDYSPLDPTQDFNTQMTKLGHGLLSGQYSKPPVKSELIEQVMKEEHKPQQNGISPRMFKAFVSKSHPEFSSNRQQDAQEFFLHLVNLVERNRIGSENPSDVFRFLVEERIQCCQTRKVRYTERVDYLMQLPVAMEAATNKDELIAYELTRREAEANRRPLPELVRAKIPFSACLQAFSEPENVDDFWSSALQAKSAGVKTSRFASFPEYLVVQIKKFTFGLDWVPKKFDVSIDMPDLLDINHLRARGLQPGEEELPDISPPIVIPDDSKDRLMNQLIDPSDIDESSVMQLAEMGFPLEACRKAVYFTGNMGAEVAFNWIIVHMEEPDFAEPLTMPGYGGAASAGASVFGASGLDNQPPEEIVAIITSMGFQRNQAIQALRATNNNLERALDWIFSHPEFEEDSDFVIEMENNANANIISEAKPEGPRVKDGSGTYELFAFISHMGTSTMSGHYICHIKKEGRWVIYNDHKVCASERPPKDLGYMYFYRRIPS
T1: DNA aptamer A10G; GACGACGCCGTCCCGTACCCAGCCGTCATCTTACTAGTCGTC
Sequence of UniProt Q16774 (whole entry, unmodified, looked up): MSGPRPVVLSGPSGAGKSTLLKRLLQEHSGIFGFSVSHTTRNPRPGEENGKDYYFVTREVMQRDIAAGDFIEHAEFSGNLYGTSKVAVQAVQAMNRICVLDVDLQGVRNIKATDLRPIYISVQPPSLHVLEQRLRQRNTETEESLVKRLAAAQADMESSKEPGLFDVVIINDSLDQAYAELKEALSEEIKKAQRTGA
Sequence of UniProt P51575 (whole entry, unmodified, looked up): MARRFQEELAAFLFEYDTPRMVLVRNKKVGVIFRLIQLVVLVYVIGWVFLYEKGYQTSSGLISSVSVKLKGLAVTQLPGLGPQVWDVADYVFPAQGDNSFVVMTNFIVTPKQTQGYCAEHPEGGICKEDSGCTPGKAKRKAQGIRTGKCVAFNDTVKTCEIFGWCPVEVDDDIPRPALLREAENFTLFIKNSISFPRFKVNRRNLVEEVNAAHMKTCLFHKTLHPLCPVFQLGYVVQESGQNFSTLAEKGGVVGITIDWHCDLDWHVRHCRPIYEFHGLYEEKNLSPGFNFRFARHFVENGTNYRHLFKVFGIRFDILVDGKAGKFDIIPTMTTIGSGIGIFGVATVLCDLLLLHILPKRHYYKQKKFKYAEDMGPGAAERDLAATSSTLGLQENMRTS
Sequence of UniProt P00519 (whole entry, unmodified, looked up): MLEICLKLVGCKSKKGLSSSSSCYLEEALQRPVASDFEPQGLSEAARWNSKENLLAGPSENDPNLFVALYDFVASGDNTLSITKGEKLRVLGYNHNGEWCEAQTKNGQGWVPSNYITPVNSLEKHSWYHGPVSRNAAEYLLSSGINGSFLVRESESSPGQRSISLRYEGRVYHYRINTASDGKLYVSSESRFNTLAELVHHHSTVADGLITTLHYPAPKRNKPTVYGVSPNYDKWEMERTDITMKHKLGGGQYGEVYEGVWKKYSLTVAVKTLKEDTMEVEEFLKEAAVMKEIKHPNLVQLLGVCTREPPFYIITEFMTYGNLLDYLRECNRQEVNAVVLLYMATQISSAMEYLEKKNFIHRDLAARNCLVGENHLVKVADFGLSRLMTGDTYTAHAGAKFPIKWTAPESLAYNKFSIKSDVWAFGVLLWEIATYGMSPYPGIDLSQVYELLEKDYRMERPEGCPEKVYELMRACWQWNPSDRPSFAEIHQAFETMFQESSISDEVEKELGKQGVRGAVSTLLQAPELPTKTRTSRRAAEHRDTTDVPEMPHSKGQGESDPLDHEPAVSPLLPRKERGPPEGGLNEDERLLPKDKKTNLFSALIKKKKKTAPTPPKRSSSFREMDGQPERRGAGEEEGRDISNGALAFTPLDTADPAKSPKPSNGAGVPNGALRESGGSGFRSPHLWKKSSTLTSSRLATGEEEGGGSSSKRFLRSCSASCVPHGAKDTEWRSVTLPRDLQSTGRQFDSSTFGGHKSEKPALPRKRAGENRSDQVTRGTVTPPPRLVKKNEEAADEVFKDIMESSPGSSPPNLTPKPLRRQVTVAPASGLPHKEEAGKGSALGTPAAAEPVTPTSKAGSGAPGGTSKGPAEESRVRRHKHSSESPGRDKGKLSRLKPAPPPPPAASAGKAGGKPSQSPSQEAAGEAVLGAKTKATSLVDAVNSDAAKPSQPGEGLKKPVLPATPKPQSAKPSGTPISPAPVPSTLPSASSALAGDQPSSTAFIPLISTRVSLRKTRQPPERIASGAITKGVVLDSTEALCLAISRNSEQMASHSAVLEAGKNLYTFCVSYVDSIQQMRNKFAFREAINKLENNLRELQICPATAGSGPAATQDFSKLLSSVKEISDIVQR
Sequence of UniProt P00441 (whole entry, unmodified, looked up): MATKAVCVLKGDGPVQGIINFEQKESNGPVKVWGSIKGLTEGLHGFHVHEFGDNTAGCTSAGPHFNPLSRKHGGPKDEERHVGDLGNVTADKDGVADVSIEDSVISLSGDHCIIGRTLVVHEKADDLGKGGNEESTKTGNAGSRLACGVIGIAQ
Sequence of UniProt Q9NR97 (whole entry, looked up): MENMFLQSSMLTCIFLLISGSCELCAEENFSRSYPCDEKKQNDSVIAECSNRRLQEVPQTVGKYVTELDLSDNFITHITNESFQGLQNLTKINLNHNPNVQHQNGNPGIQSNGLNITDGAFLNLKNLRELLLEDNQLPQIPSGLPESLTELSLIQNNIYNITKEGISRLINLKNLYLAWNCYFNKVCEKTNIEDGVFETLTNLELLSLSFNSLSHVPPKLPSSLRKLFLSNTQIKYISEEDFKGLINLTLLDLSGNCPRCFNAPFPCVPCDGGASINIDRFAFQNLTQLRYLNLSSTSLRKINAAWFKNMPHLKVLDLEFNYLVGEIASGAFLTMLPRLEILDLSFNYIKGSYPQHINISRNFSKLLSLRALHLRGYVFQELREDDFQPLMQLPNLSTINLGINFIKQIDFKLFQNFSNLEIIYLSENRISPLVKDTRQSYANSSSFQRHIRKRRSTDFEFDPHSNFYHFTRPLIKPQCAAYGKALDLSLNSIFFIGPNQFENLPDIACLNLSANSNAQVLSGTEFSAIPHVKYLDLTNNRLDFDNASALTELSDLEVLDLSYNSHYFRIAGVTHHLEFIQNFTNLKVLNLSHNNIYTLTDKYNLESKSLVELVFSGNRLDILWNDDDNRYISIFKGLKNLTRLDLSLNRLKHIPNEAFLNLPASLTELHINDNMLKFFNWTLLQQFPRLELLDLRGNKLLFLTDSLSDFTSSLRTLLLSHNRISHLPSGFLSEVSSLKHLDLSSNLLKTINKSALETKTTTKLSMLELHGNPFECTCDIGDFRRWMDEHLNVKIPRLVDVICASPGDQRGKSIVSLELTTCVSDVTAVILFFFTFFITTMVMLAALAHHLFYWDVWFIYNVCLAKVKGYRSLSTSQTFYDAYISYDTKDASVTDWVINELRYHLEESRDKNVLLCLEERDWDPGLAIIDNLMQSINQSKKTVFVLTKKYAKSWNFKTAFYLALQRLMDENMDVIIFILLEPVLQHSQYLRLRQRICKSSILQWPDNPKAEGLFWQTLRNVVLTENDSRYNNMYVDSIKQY
Sequence of UniProt Q9UKI8 (whole entry, looked up): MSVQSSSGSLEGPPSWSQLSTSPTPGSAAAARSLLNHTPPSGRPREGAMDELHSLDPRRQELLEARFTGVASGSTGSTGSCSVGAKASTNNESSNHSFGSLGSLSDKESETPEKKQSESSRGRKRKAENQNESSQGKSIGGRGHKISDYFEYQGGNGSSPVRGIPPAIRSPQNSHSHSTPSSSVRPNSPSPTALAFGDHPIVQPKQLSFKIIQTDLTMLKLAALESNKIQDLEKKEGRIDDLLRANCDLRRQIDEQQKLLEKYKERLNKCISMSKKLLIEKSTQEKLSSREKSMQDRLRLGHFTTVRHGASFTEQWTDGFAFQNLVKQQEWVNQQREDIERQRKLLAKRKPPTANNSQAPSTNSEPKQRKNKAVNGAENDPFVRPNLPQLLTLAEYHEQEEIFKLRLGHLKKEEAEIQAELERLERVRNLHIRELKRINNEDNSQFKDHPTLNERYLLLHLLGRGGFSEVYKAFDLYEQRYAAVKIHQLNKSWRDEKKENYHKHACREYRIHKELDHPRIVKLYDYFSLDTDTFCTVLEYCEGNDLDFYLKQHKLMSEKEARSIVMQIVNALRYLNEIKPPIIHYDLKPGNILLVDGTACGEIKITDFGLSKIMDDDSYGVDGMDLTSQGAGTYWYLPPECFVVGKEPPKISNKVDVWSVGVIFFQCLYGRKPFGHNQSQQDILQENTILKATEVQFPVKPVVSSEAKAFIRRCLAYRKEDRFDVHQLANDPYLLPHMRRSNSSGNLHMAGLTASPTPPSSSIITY
Sequence of UniProt P54292 (whole entry, looked up): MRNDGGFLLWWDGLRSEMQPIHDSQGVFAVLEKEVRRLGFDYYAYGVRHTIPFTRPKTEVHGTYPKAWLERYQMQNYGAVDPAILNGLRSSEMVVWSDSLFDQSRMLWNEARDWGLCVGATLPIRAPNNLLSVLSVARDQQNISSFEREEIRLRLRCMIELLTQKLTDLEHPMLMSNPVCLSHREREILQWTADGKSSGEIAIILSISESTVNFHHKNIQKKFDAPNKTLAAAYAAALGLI

SMILES	tested on	test	test system	conditions	scale	quantity	value
COC(=O)c1csc(C(=O)c2c[nH]c3ccccc23)n1	AHR (Homo sapiens, UniProt P35869)	reporter gene, agonist, XRE luciferase reporter	HepG2	unit not given	reference: vehicle	Emax	54 ± 3
c1coc(-c2n[nH]cc2-c2ccnc3ccccc23)c1	Serine/threonine-protein kinase ATG1 (ATG1, Candida albicans, UniProt Q5A649)	kinase binding, MIB/MS competition	Candida albicans lysate	10 µM	reference: DMSO, negative = stronger binding	log2 fold change	-0.06
COc1cc(-c2cc(C(C)=O)n3ccccc23)c(OC)cc1Cn1ccnc1	SWI/SNF-related matrix-associated actin-dependent regulator of chromatin subfamily A member 2, isoform B (SMARCA2, Homo sapiens, UniProt P51531)	–	–	–	–	ΔTm	-0.5 °C
NS(=O)(=O)c1ccc(NCC(=O)O)cc1	USP13 ZnF-UBD domain	–	–	–	–	Kd	> 1000 µM
N#Cc1ccc(C[C@@H](Nc2c(Nc3ccc(Br)cc3)c(=O)c2=O)C(=O)N2CCc3ccccc32)cc1	FPR2 (Homo sapiens, UniProt P25090)	cell-based	–	concentration not given	–	activity	inactive
Cc1cc(NS(=O)(=O)c2ccc(N)cc2)no1	folP (Bacteria, UniProt P0AC13)	CETSA HiBiT	whole cells	–	–	melting temperature	51.2 °C
Cc1cc2ccccc2c2ccc3ccccc3c12	Aryl hydrocarbon receptor (Danio rerio, UniProt Q9YGV3)	reporter gene, agonist, luciferase reporter	ZF-4	4.572 µM	reference: vehicle control	fold change	1.75
Nc1ncnc2c1ncn2[C@@H]1O[C@H](COP(=O)(O)CP(=O)(O)OP(=O)(O)O)[C@@H](O)[C@H]1O	P2X purinoceptor 1 (P2RX1, Homo sapiens, UniProt P51575, K215A)	saturation binding	HEK293	79 nM	–	specific binding	4040 CCPM and 4770 CCPM
CN(C)c1ncc(F)c(-c2cnn3ncccc23)n1	ABL1 (Homo sapiens, UniProt P00519, F317L)	KINOMEscan	–	1 µM	reference: control	remaining binding	65% and 100%
OC(C#Cc1ccc(F)c(F)c1)c1cccc(Cl)c1 (stereo not shown)	rhlR (Pseudomonas aeruginosa, UniProt P54292)	reporter gene, inhibitor, quorum sensing reporter strain	–	10 µM, 1.5 h	reference: DMSO	remaining activity	59%
CC1(C)S[C@@H]2[C@H](NC(=O)[C@H](N)c3ccccc3)C(=O)N2[C@H]1C(=O)O	T1, DNA aptamer A10G	competition, fluorescence displacement	–	apparent, with: ThT 10 µM	–	Kd	89.8 µM
Nc1nc2c(ncn2[C@@H]2O[C@H](COP(=O)(O)O)[C@@H](O)[C@H]2O)c(=O)[nH]1	GUK1 (Homo sapiens, UniProt Q16774, Y53A)	enzyme activity, NADH-coupled	–	7.812 µM	–	reaction rate	-0.849 s⁻¹ and -2.95 s⁻¹ and -0.325 s⁻¹
CC[C@@H]1[C@H](F)C(=O)N[C@@H]1COc1nccc2cc(C(N)=O)c(OC)cc12	TLK1 (Homo sapiens, UniProt Q9UKI8)	ATP-site probe binding, ActivX profiling	THP-1 cell lysate	0.2 mM, Lys1 site	–	inhibition	4.8%
CCCCCCCCCCCCC/C=C/[C@@H](O)[C@H](CO)NC(=O)CCCCCCCCCCCCCCCCC	Protein SET (SET, Homo sapiens, UniProt Q01105)	lipid binding, GFP pull-down LC-MS/MS	A549 overexpressing GFP-tagged protein	ER-targeted construct, unit not given	reference: vector-transfected cells	bound endogenous lipid	4.9
CC(=C/C(=O)O)/C=C/C=C(\C)C1C=C2C(C)(C)CCCC2(C)O1 (stereo not shown)	Rhodopsin (RHO, Homo sapiens, UniProt P08100, P23H)	ER retention, immunostaining co-localization, refers to: opsin with calnexin	COS-7 transfected P23H	10.00 µM	–	Pearson correlation coefficient	0.65
[O-][S+]1CCCCS1 (stereo not shown)	SOD1 (Homo sapiens, UniProt P00441, G94A)	intact protein LC-MS	SOD1 G93A transgenic mice, whole blood	intravenous, 10 mg/kg, 12 h, mean of two mice	–	target engagement	41.4%
CCCCc1nc2c(N)nc3ccccc3n2n1	TLR8 (Homo sapiens, UniProt Q9NR97)	reporter gene, agonist, NF-κB reporter	HEK-Blue TLR8	–	–	EC50	inactive
Cn1cc(-c2ccc(-c3cncc(Cl)c3N3CCC4(CCNC4=O)CC3)cc2)cn1	COLO 205	gene expression, microarray, refers to: WWTR1 mRNA	–	concentration not given, 6 h	reference: untreated cells	log2 fold change	-2.94
O=C(O)Cc1cccnc1	USP13 ZnF-UBD domain	–	–	–	–	Kd	> 1000 µM
